# Measured values from different studies.
# Lines come from different studies, so protocols differ. Several values in a cell are separate wells, animals, samples, runs or records.
# Oprk1: Kappa-type opioid receptor (Oprk1, Rattus norvegicus, UniProt P34975)
# Sigmar1: Sigma non-opioid intracellular receptor 1 (Sigmar1, Rattus norvegicus, UniProt Q9R0C9)
# BIRC2 BIR3 domain: Baculoviral IAP repeat-containing protein 2, BIR3 domain (BIRC2, Homo sapiens, UniProt Q13490)
# Phospholipase D2: Phospholipase D2 (Homo sapiens, UniProt O14939)
Structure (SMILES),target,assay,test system,conditions,scale,selectivity ratio
CC(=O)NCC(=O)N(C)[C@@H](Cc1ccccc1)C(=O)N[C@@H](Cc1ccccc1)C(=O)N[C@@H](Cc1ccccc1)C(=O)N[C@@H](CCCNC(=N)N)C(=O)N[C@@H](CC(C)C)C(=O)N[C@@H](CCCNC(=N)N)C(=O)N[C@@H](CCCNC(=N)N)C(=O)N[C@H](C)C(=O)N[C@@H](CCCNC(=N)N)C(=O)N1CCC[C@H]1C(=O)N[C@@H](CCCCN)C(N)=O,Oprk1,"binding, [3H]diprenorphine competition",CHO cells,,"reference: Ki mu over Ki kappa, higher = more kappa-selective",> 1240
Cc1cc(N2CC[C@@](C#N)(C3(C)CC3)C2=O)cc(C(=O)NCc2cc(F)cc(-c3cnn(C)c3)c2)n1,"Proline--tRNA ligase (Plasmodium falciparum, UniProt Q8I5R7)","aminoacylation activity, inhibitor, malachite green",,,reference: human over P. falciparum IC50,~1 and 0.9
CCC(=O)c1ccc2c(c1)sc(=O)n2CCN1CCCC1,Sigmar1,,,,reference: Ki sigma-2 over Ki sigma-1,41
N[C@@H](CCC(=O)N[C@@H](CS[Se]Cc1ccc(C(=O)Nc2cc(C(F)(F)F)c(Br)c(C(F)(F)F)c2)cc1)C(=O)NCC(=O)O)C(=O)O,"Tyrosine-protein phosphatase non-receptor type 1 (PTPN1, Homo sapiens, UniProt P18031)",enzyme activity,,"added: pNPP, GSH 1 mM",reference: IC50 PTPN1 over mPTPA,94
CC(=O)N(C)[C@@H](Cc1ccccc1)C(=O)N[C@@H](Cc1ccccc1)C(=O)N[C@@H](Cc1ccc(O)cc1)C(=O)N[C@@H](CCCNC(=N)N)C(=O)N[C@@H](CC(C)C)C(=O)N[C@@H](CCCNC(=N)N)C(=O)N[C@@H](CCCNC(=N)N)C(=O)N[C@H](C)C(=O)N[C@@H](CCCNC(=N)N)C(=O)N1CCC[C@H]1C(=O)N[C@@H](CCCCN)C(N)=O,Oprk1,"binding, [3H]diprenorphine competition",CHO cells,,"reference: Ki mu over Ki kappa, higher = more kappa-selective",90
CC(=O)C1=C(C)NC(SCCCSc2nnc(Cc3ccccc3Nc3c(Cl)cccc3Cl)n2-c2ccc(Cl)c(Cl)c2)=NC1c1ccc(C)cc1 (stereo not drawn),"Amine oxidase [flavin-containing] B (MAOB, Homo sapiens, UniProt P27338)",fluorometric,,,reference: IC50 hMAO-A over IC50 hMAO-B,0.1
C[C@H](NCc1ccccc1)C(=O)NCC(=O)NCC(=O)N[C@@H](Cc1ccccc1)C(=O)N[C@@H]1CC(=O)NC[C@@H](C(=O)N[C@@H](CCCNC(=N)N)C(=O)N2CCC[C@H]2C(=O)N[C@@H](CCCCN)C(N)=O)NC(=O)[C@H](CCCNC(=N)N)NC(=O)[C@H](CCCNC(=N)N)NC1=O,Oprk1,binding,,,reference: Ki(MOR) over Ki(KOR),> 19
CCCc1ccc2c(c1)sc(=O)n2CCCN1CCCCCC1,Sigmar1,,,,reference: Ki sigma-2 over Ki sigma-1,13
CN[C@@H](C)C(=O)N[C@H]1CN(C(=O)Cc2ccccc2)CC[C@H]2CC[C@@H](C(=O)NCc3ccc(C(F)(F)F)cc3)N2C1=O,BIRC2 BIR3 domain,fluorescence polarization,,,reference: Ki XIAP over Ki cIAP1,933
Cc1ccc(CNC(=O)C(CCc2ccccc2)NC(=O)C(NC(=O)c2ccc(OCc3ccc(C(C)(C)C)cc3)cc2)C(C)O)cc1 (stereo not drawn),"Proteasome component C5/PSMB5 (Homo sapiens, UniProt P20618+P28074)",Proteasome-Glo β5,B-cell lymphoma lines,1 h,"reference: IC50 differences among OCI-Ly10, WSUDLCL2 and Karpas-1106P",≤ 4 fold
O=c1sc2ccccc2n1CCCN1CCCCCC1,Sigmar1,,,,reference: Ki sigma-2 over Ki sigma-1,43
CC(=O)N(C)[C@@H](Cc1ccccc1)C(=O)N[C@@H](Cc1ccccc1)C(=O)N[C@@H](CC1CCCCC1)C(=O)N[C@@H](CCCNC(=N)N)C(=O)N[C@@H](CC(C)C)C(=O)N[C@@H](CCCNC(=N)N)C(=O)N[C@@H](CCCNC(=N)N)C(=O)N[C@H](C)C(=O)N[C@@H](CCCNC(=N)N)C(=O)N1CCC[C@H]1C(=O)N[C@@H](CCCCN)C(N)=O,Oprk1,"binding, [3H]diprenorphine competition",CHO cells,,"reference: Ki mu over Ki kappa, higher = more kappa-selective",755
CN[C@@H](C)C(=O)N[C@H]1CN(C(=O)Cc2ccccc2)CC[C@H]2CC[C@@H](C(=O)NCc3ccc(Br)cc3)N2C1=O,BIRC2 BIR3 domain,fluorescence polarization,,,reference: Ki XIAP over Ki cIAP1,962
CCC(=O)c1ccc2c(c1)sc(=O)n2CCCCCN1CCCCCC1,Sigmar1,,,,reference: Ki sigma-2 over Ki sigma-1,0.7
CC(=O)N(C)[C@@H](Cc1ccccc1)C(=O)N[C@@H](Cc1ccccc1)C(=O)N[C@@H](Cc1c[nH]c2ccccc12)C(=O)N[C@@H](CCCNC(=N)N)C(=O)N[C@@H](CC(C)C)C(=O)N[C@@H](CCCNC(=N)N)C(=O)N[C@@H](CCCNC(=N)N)C(=O)N[C@H](C)C(=O)N[C@@H](CCCNC(=N)N)C(=O)N1CCC[C@H]1C(=O)N[C@@H](CCCCN)C(N)=O,Oprk1,"binding, [3H]diprenorphine competition",CHO cells,,"reference: Ki mu over Ki kappa, higher = more kappa-selective",230
O=C(NCCN1CCC2(CC1)C(=O)NCN2Cc1ccccn1)c1ccc2ccccc2c1,Phospholipase D2,,,,reference: PLD1 IC50 over Phospholipase D2 IC50,30 fold
CCCC(=O)c1ccc2c(c1)sc(=O)n2CCCCN1CCCCCC1,Sigmar1,,,,reference: Ki sigma-2 over Ki sigma-1,5
O=C(NCCN1CCC2(CC1)C(=O)NCN2Cc1cccnc1)c1cc2ccccc2[nH]1,Phospholipase D2,,,,reference: PLD1 IC50 over Phospholipase D2 IC50,69 fold
CCCCCCCCCCCCCCN(O)C(=O)CCCCC[C@@H]1NC(=O)[C@H]2CCCN2C(=O)[C@H](Cc2ccccc2)NC(=O)[C@H](Cc2ccccc2)NC1=O,"Histone deacetylase 11 (HDAC11, Homo sapiens, UniProt Q96DB2)","enzyme activity, fluorogenic",,,reference: Ki HDAC1 over Ki HDAC11,< 10
O=C(NCCN1CCC2(CC1)C(=O)NCN2Cc1ccccc1F)c1ccc2ccccc2c1,Phospholipase D2,,,,reference: PLD1 IC50 over Phospholipase D2 IC50,22 fold
COC(=O)N(C)[C@@H](Cc1ccccc1)C(=O)N[C@@H](Cc1ccccc1)C(=O)N[C@@H](Cc1c[nH]c2ccccc12)C(=O)N[C@@H](CCCNC(=N)N)C(=O)N[C@@H](CC(C)C)C(=O)N[C@@H](CCCNC(=N)N)C(=O)N[C@@H](CCCNC(=N)N)C(=O)N[C@H](C)C(=O)N[C@@H](CCCNC(=N)N)C(=O)N1CCC[C@H]1C(=O)N[C@@H](CCCCN)C(N)=O,Oprk1,"binding, [3H]diprenorphine competition",CHO cells,,"reference: Ki mu over Ki kappa, higher = more kappa-selective",134
N=C(N)NCCC[C@H](NC(=O)[C@@H]1CCCN1C(=O)[C@@H]1CSSC[C@H](N)C(=O)N[C@@H](Cc2ccc(O)cc2)C(=O)N[C@@H](Cc2ccccc2)C(=O)N[C@@H](CCC(N)=O)C(=O)N[C@@H](CC(N)=O)C(=O)N1)C(=O)NCC(N)=O,"oxytocin receptor (Mesocricetus auratus, UniProt A0A1U7Q6Y0)",competition binding,hamster brain sections,,reference: OTR over V1aR Ki,7.67
COC(=O)C=CCCC(NC(=O)c1ccncc1C(=O)O)C(=O)NC(C(=O)N1CC(=O)CC1C(=O)NC(C(=O)NC(C(N)=O)C1CCCCC1)C1CCCCC1)C(C)(C)C (stereo not drawn),"Protein-glutamine gamma-glutamyltransferase K (Homo sapiens, UniProt P22735)","transamidation activity, inhibitor",,,reference: TG1 IC50 over FXIII-A2 IC50,463
CCC(=O)c1ccc2c(c1)sc(=O)n2CCN1CCCCCC1,Sigmar1,,,,reference: Ki sigma-2 over Ki sigma-1,483
CC(C)C[C@H](NC(=O)[C@H](CCCNC(=N)N)NC(=O)[C@H](Cc1ccccc1)NC(=O)[C@H](Cc1ccccc1)NC(=O)[C@H](Cc1ccccc1)N(C)C(=O)CN)C(=O)N[C@@H](CCCNC(=N)N)C(=O)N[C@@H](CCCNC(=N)N)C(=O)N[C@H](C)C(=O)N[C@@H](CCCNC(=N)N)C(=O)N1CCC[C@H]1C(=O)N[C@@H](CCCCN)C(N)=O,Oprk1,"binding, [3H]diprenorphine competition",CHO cells,,"reference: Ki mu over Ki kappa, higher = more kappa-selective",106
O=c1sc2ccccc2n1CCN1CCCC1,Sigmar1,,,,reference: Ki sigma-2 over Ki sigma-1,14
CCC[C@H]1CC[C@H](c2ccc(NC(=S)NC[C@@H]3[C@@H](O)[C@@H](O)[C@H]4[C@H](O)CCCN43)cc2)CC1,"Alpha-mannosidase 2 (Homo sapiens, UniProt Q16706)",inhibitor,,added: fluorogenic mannoside substrate,reference: lysosomal over Golgi mannosidase Ki,106

# Excerpt of the above:
Structure (SMILES),target,assay,test system,conditions,scale,selectivity ratio
CCCCCCCCCCCCCCN(O)C(=O)CCCCC[C@@H]1NC(=O)[C@H]2CCCN2C(=O)[C@H](Cc2ccccc2)NC(=O)[C@H](Cc2ccccc2)NC1=O,"Histone deacetylase 11 (HDAC11, Homo sapiens, UniProt Q96DB2)","enzyme activity, fluorogenic",,,reference: Ki HDAC1 over Ki HDAC11,< 10
O=C(NCCN1CCC2(CC1)C(=O)NCN2Cc1ccccc1F)c1ccc2ccccc2c1,Phospholipase D2,,,,reference: PLD1 IC50 over Phospholipase D2 IC50,22 fold
COC(=O)N(C)[C@@H](Cc1ccccc1)C(=O)N[C@@H](Cc1ccccc1)C(=O)N[C@@H](Cc1c[nH]c2ccccc12)C(=O)N[C@@H](CCCNC(=N)N)C(=O)N[C@@H](CC(C)C)C(=O)N[C@@H](CCCNC(=N)N)C(=O)N[C@@H](CCCNC(=N)N)C(=O)N[C@H](C)C(=O)N[C@@H](CCCNC(=N)N)C(=O)N1CCC[C@H]1C(=O)N[C@@H](CCCCN)C(N)=O,Oprk1,"binding, [3H]diprenorphine competition",CHO cells,,"reference: Ki mu over Ki kappa, higher = more kappa-selective",134
